# Measurements of several laboratories.
# Each line is one published result; not all experiments were run side by side. Values joined by “and” are separate records of one study, mostly repeats; a detail may differ. ± gives the spread as reported.
# LGALS1: Galectin-1 (LGALS1, Homo sapiens, UniProt P09382)
# RIPK3: Receptor-interacting serine/threonine-protein kinase 3 (RIPK3, Homo sapiens, UniProt Q9Y572)
# BPTF bromodomain: Nucleosome-remodeling factor subunit BPTF, bromodomain (BPTF, Homo sapiens, UniProt Q12830)
# Proline--tRNA ligase: Proline--tRNA ligase (Plasmodium falciparum, UniProt Q8I5R7)
Structure (SMILES),target,assay,conditions,Kd
CC[C@H](C)[C@H](NC(=O)[C@H](CCCCN)NC(=O)[C@H](CCCCN)NC(=O)[C@@H](NC(=O)[C@H](CCC(=O)O)NC(=O)[C@H](CCC(=O)O)NC(=O)[C@H](CCC(=O)O)NC(=O)[C@H](CO)NC(=O)[C@H](CC(C)C)NC(=O)[C@H](CC(=O)O)NC(=O)[C@H](CC(C)C)NC(=O)CNC(=O)[C@H](C)NC(=O)[C@H](CC(C)C)NC(=O)[C@H](CO)NC(=O)CNC(=O)CNC(=O)CNC(=O)CCCC[C@@H]1SC[C@@H]2NC(=O)N[C@@H]21)C(C)C)C(=O)N[C@@H](CC(C)C)C(=O)N[C@@H](CC(=O)O)C(=O)N[C@@H](CCC(=O)O)C(=O)N[C@H](C(=O)N[C@H](C(=O)N[C@@H](CCCCN)C(=O)N[C@@H](CC(=O)O)C(=O)O)C(C)C)[C@@H](C)CC,Fab B11 antibody (human),"binding, biolayer interferometry",together with: biotinylated peptide on tips,0.031 ± 0.001 µM
OC[C@H]1Oc2cc(I)cc3c2[C@@H](OC3)[C@H]1O,LGALS1,"ligand displacement, FP",,1200 µM
O=C(Cc1cccc(C(F)(F)F)c1)Nc1cc(Oc2cc3sc(NC(=O)C4CC4)nc3cc2Br)ccc1F,RIPK3,"binding, competition with immobilised ligand",,> 5 µM
CCCN(CC(=O)N(CCC)CC(=O)N(CCC)CC(=O)N(CCC)CC(=O)N(CC(N)=O)Cc1cn(CCCNC(=O)CCCOc2cccc(-c3nc4ccc(-c5nc6ccc(N7CCN(C)CC7)cc6[nH]5)cc4[nH]3)c2)nn1)C(=O)CNCc1cn(CCCNC(=O)CCCOc2cccc(-c3nc4ccc(-c5nc6ccc(N7CCN(C)CC7)cc6[nH]5)cc4[nH]3)c2)nn1,r(CUG)109 RNA hairpin,"binding, fluorescence",,0.1 ± 0.013 µM
O=C(O)Cc1ccccc1O,"p-hydroxyphenylacetate 3-hydroxylase, reductase component (C1-hpah, Acinetobacter baumannii, UniProt Q6Q271)",ITC,"pH 7, together with: 1 mM FMN",220 ± 13.4 µM
C#CCN(CC(=O)N(CCOC)CC(=O)N(CCOC)CC(N)=O)C(=O)CN(CCOC)C(=O)CN(CC1CCCC1)C(=O)CN(Cc1ccc(F)cc1)C(=O)C(C)N(CCCOC)C(=O)CNCc1ccc(S(N)(=O)=O)cc1 (stereo not drawn),"MMP14 (Homo sapiens, UniProt P50281)","binding, FP",,0.7 µM
CN(C)CCNC(=O)c1cccc2c(NCCCCc3c(N)nc(N)nc3N)c3ccccc3nc12,RNA with single C–U pair,"binding, ITC","25 °C, 1",85 ± 30 µM
COc1ccc(Cc2cc3c4c(c2)O[C@H](CO)[C@H](O)[C@@H]4OC3)cc1,"Galectin-9 (LGALS9, Homo sapiens, UniProt O00182)","cell-free assay, FP",,> 1000 µM
CC(=O)NCCCC[C@H](NC(=O)CNC(=O)[C@H](CO)NC(=O)[C@H](CC(=O)O)NC(=O)[C@H](CCCCNC(C)=O)NC(=O)CNC(=O)[C@H](C)NC(=O)[C@H](CCCCN)NC(=O)CNC(=O)CNC(=O)[C@H](C)NC(=O)[C@@H](N)Cc1ccc(O)cc1)C(=O)N[C@@H](C)C(=O)N[C@@H](CCCCN)C(=O)N[C@@H](C)C(=O)N[C@@H](CCCCN)C(=O)N[C@@H](C)C(=O)N[C@H](C(=O)N[C@@H](CO)C(=O)N[C@@H](CCCNC(=N)N)C(N)=O)C(C)C,BPTF bromodomain,"bromodomain binding, PrOF NMR titration","pH 7.4, 5-fluorotryptophan-labelled bromodomain, 40-50 µM",780 µM
CC[C@H](C)[C@H](NC(=O)[C@H](C)NC(=O)[C@H](CCCCN)NC(=O)[C@@H](NC(=O)[C@H](CCC(=O)O)NC(=O)[C@H](CCC(=O)O)NC(=O)[C@H](CCC(=O)O)NC(=O)[C@H](CO)NC(=O)[C@H](CC(C)C)NC(=O)[C@H](CC(=O)O)NC(=O)[C@H](CC(C)C)NC(=O)CNC(=O)[C@H](CCCNC(=N)N)NC(=O)[C@H](CC(C)C)NC(=O)[C@H](CO)NC(=O)CNC(=O)CNC(=O)CNC(=O)CCCC[C@@H]1SC[C@@H]2NC(=O)N[C@@H]21)C(C)C)C(=O)N[C@@H](CC(C)C)C(=O)N[C@@H](CC(=O)O)C(=O)N[C@@H](CCC(=O)O)C(=O)N[C@H](C(=O)N[C@H](C(=O)N[C@@H](CCCCN)C(=O)N[C@@H](CC(=O)O)C(=O)O)C(C)C)[C@@H](C)CC,Fab B11 antibody (human),"binding, biolayer interferometry",together with: biotinylated peptide on tips,0.053 ± 0.001 µM
C[C@H](NC(=O)[C@H](Cc1ccc(O)cc1)NC(=O)[C@H](Cc1ccccc1)NC(=O)[C@H](CCC(=O)O)NC(=O)[C@H](CCC(=O)O)NC(=O)[C@H](CCC(N)=O)NC(=O)[C@H](CCCCN)NC(=O)[C@@H](NS(=O)(=O)c1cccc2c(N(C)C)cccc12)[C@@H](C)O)C(=O)O,"Rho guanine nucleotide exchange factor TIAM1, PDZ domain (TIAM1, Homo sapiens, UniProt Q13009, K912E)",fluorescence anisotropy,"25 °C, together with: N-terminally dansylated peptide",135 ± 23 µM
O=C(O)C1(O)Oc2cc(Br)ccc2N(Cc2ccccc2)C1=O (stereo not drawn),"Dihydroxy-acid dehydratase, chloroplastic (DHAD, Arabidopsis thaliana, UniProt Q9LIR4)",microscale thermophoresis,,< 3 µM
CC(=O)NCCCC[C@H](NC(=O)CNC(=O)[C@H](C)NC(=O)[C@H](CCCCN)NC(=O)CNC(=O)CNC(=O)[C@H](C)NC(=O)[C@@H](N)Cc1ccc(O)cc1)C(=O)N[C@@H](CC(=O)O)C(=O)N[C@@H](CO)C(=O)NCC(=O)N[C@@H](CCCCN)C(=O)N[C@@H](C)C(=O)N[C@@H](CCCCNC(C)=O)C(=O)N[C@@H](C)C(=O)N[C@@H](CCCCNC(C)=O)C(=O)N[C@@H](C)C(=O)N[C@H](C(=O)N[C@@H](CO)C(=O)N[C@@H](CCCNC(=N)N)C(N)=O)C(C)C,BPTF bromodomain,"bromodomain binding, PrOF NMR titration","pH 7.4, 5-fluorotryptophan-labelled bromodomain, 40-50 µM",960 µM
CC(C)C[C@@H](N)C(=O)N[C@H](CC(=O)O)C(=O)N[C@@H](C(=O)N[C@H](Cc1ccccc1)C(=O)N[C@H](CC(C)C)C(=O)N[C@H](Cc1ccc(O)cc1)C(=O)N[C@H](CO)C(=O)N[C@H](CCC(=O)O)C(=O)O)C(C)C,"Cd274 (Mus musculus, UniProt Q9EP73)","binding, MST",,22.9 µM
CC(=O)N[C@@H]1[C@@H](O[C@@H]2O[C@H](C(=O)O)[C@@H](O[C@@H]3O[C@H](CO)[C@@H](O)[C@H](O[C@@H]4O[C@H](C(=O)O)[C@@H](O)[C@H](O)[C@H]4O)[C@H]3NC(C)=O)[C@H](O)[C@H]2O)[C@H](O)[C@@H](CO)O[C@H]1N=[N+]=[N-],"Interleukin-10 (Il10, Mus musculus, UniProt P18893)",fluorescence polarization competition,,no binding
CCN(CC)C1CCN(Cc2cc(C#CCN)cc(I)c2O)CC1,"TP53 (Homo sapiens, UniProt P04637, M133L/N239Y/N268D/V203A/Y220C)",,,~1100 µM
CC(=O)NCCCC[C@H](NC(=O)CNC(=O)CNC(=O)[C@H](C)NC(=O)[C@@H](N)Cc1ccc(O)cc1)C(=O)N[C@@H](C)C(=O)NCC(=O)N[C@@H](CCCCN)C(=O)N[C@@H](CC(=O)O)C(=O)N[C@@H](CO)C(=O)NCC(=O)N[C@@H](CCCCN)C(=O)N[C@@H](C)C(=O)N[C@@H](CCCCN)C(=O)N[C@@H](C)C(=O)N[C@@H](CCCCNC(C)=O)C(=O)N[C@@H](C)C(=O)N[C@H](C(=O)N[C@@H](CO)C(=O)N[C@@H](CCCNC(=N)N)C(N)=O)C(C)C,BPTF bromodomain,protein-observed fluorine NMR,,430 µM
CCCC[C@@H]1NC(=O)[C@H](Cc2ccc(O)cc2)NC(=O)[C@@H]2CCCN2C(=O)[C@H](CC(=O)O)NC(=O)[C@H](C)NC(=O)[C@H](Cc2ccccc2)NC(=O)[C@@H]2CSCCC(=O)N3CN(CN(C3)C(=O)CCSC[C@@H](C(=O)N[C@@H](C)C(N)=O)NC1=O)C(=O)CCSC[C@H](NC(=O)[C@H](C)NC(C)=O)C(=O)N[C@@H](CC(C)(C)C)C(=O)N1CCC[C@H]1C(=O)N[C@@H](CCC(=O)O)C(=O)N[C@H](C)C(=O)N1CCC[C@H]1C(=O)N[C@@H](Cc1ccc(O)cc1)C(=O)N2,"Tumor necrosis factor receptor superfamily member 9 (Homo sapiens, UniProt Q07011)","binding, SPR",,0.004 µM
COc1cncc(-c2cc(F)cc(CNC(=O)c3cc(N4CC[C@@](C#N)(C5CC5)C4=O)cc(C)n3)c2)c1,Proline--tRNA ligase,"binding, microscale thermophoresis",,0.0786 µM and 0.0964 µM
O=C(Cc1cccc(C(F)(F)F)c1)Nc1cc(Oc2c(F)cc3nc(NC(=O)C4CC4)sc3c2Cl)ccc1F,RIPK3,"binding, competition with immobilised ligand",,> 5 µM
CC#Cc1cc2c3c(c1C#CC)O[C@H](CO)[C@H](O)[C@@H]3OC2,"Galectin-9, N-terminal CRD (LGALS9, Homo sapiens, UniProt O00182)","binding, competitive fluorescence polarization","20 °C, galectin-9 N-terminal domain 1.0 µM",> 2000 µM
Nc1ccc(/C=C/C(=O)NCC2Cc3cc(-c4ccc(C(=O)N5CCNCC5)cc4)cc(Cl)c3O2)cn1 (stereo not drawn),"PAK4 (Homo sapiens, UniProt O96013)","binding, SPR",,9.65 µM
CCCc1cc2c3c(c1CCC)O[C@H](CO)[C@H](O)[C@@H]3OC2,LGALS1,"ligand displacement, FP",,760 µM
Cc1cc(N2CC[C@@](C#N)(C3CC3)C2=O)cc(NC(=O)Cc2ccccc2)n1,Proline--tRNA ligase,"binding, MST",,~0.278 µM and 0.278 µM

# Some of these lines once more:
Structure (SMILES),target,assay,conditions,Kd
C#CCN(CC(=O)N(CCOC)CC(=O)N(CCOC)CC(N)=O)C(=O)CN(CCOC)C(=O)CN(CC1CCCC1)C(=O)CN(Cc1ccc(F)cc1)C(=O)C(C)N(CCCOC)C(=O)CNCc1ccc(S(N)(=O)=O)cc1 (stereo not drawn),"MMP14 (Homo sapiens, UniProt P50281)","binding, FP",,0.7 µM
CN(C)CCNC(=O)c1cccc2c(NCCCCc3c(N)nc(N)nc3N)c3ccccc3nc12,RNA with single C–U pair,"binding, ITC","25 °C, 1",85 ± 30 µM
